Measurements collected from several papers.
Compare with care: the assays were run in different laboratories.

CCN(CC)CCNC(=O)c1c(C)[nH]c(/C=C2\C(=O)Nc3ccc(F)cc32)c1C — median trough plasma concentration (human, plasma; oral, 15 mg/m2, day 7): 27.8 ng/mL
C[C@H](N)C(=O)N1C[C@H](CCCB(O)O)[C@](N)(C(=O)O)C1 — median tmax (human patients, plasma; oral, 75 mg single dose, cycle 1 day 1): 2 h
O=C(/C=C/c1ccc(O)c(O)c1)O[C@@H]1C[C@](O)(C(=O)O)C[C@@H](O)[C@H]1O — median concentration (human, fasted baseline, cerebrospinal fluid): 3.2 nM
N#Cc1ccnc(N2C(=O)CC[C@H]2C(=O)N(c2cncc(F)c2)[C@H](C(=O)NC2CC(F)(F)C2)c2ccccc2Cl)c1 — median Tmax (human patients; oral, single and multiple doses, together with: induction and consolidation chemotherapy): ~4 h
O=S(=O)(O)Oc1cccc(O)c1O — median concentration (human, fasted baseline, cerebrospinal fluid): 3.8 nM
CC[C@@H]1C(=O)N(C)c2cnc(Nc3ccc(C(=O)N[C@H]4CC[C@H](N5CCN(CC6CC6)CC5)CC4)cc3OC)nc2N1C(C)C — median Tmax (human, plasma; intravenous infusion, 350 mg over 2 h, first infusion): 1 h
CO[C@H]1C[C@@H]2CC[C@@H](C)[C@@](O)(O2)C(=O)C(=O)N2CCCC[C@H]2C(=O)O[C@H]([C@H](C)C[C@@H]2CC[C@@H](OC(=O)C(C)(CO)CO)[C@H](OC)C2)CC(=O)[C@H](C)/C=C(\C)[C@@H](O)[C@@H](OC)C(=O)[C@H](C)C[C@H](C)/C=C/C=C/C=C/1C — median half-life (human, whole blood; intravenous, 35 mg/m2 weekly, cycle 5, together with: valproic acid): 12.9 h
CC(C)(O)CNc1nc(Nc2ccnc(C(F)(F)F)c2)nc(-c2cccc(C(F)(F)F)n2)n1 — median Tmax (human patients; oral, 100 mg once daily, cycle 1 days 14 and 21, together with: induction chemotherapy): 4.18 h
Cn1c(-c2ccc(C(N)=O)cc2F)nnc1C(C)(C)Oc1c(F)cc(Cl)cc1F — median Cmax (young non-Japanese humans, plasma; oral, 2 mg once daily, last day of 14 days): 18.1 ng/mL
O=c1ccc2ccc(O)c(O)c2o1 — median concentration (human, fasted baseline, cerebrospinal fluid): 19.6 nM
Teicoplanin — median trough total concentration (HPLC-UV; human patients, serum; dose not given): 24.9 µg/mL
O=S(=O)(O)Oc1cc([C@H]2Oc3cc(O)cc(O)c3C[C@H]2O)ccc1O — median concentration (human, fasted baseline, cerebrospinal fluid): 11.9 nM
C=CC(=O)Nc1cc(Nc2nccc(-c3cn(C)c4ccccc34)n2)c(OC)cc1N(C)CCN(C)C — median trough concentration (UHPLC-MS/MS; human, NSCLC patients, finger-prick dried blood spot; oral, 80 mg daily, steady state, at least 14 d treatment): 203 ng/mL
COc1cc(/C=C/C(=O)OC2C(O)CC(O)(C(=O)O)CC2O)ccc1O (stereo not drawn) — median concentration (human, fasted baseline, cerebrospinal fluid): 1.8 nM
C=C[C@@H]1C[C@]1(NC(=O)[C@@H]1C[C@@H]2CN1C(=O)[C@H](C(C)(C)C)NC(=O)O[C@@H]1C[C@H]1CCCCCc1nc3ccc(OC)cc3nc1O2)C(=O)NS(=O)(=O)C1CC1 — median tmax (healthy adult humans, plasma; oral, 100 mg, fixed-dose combination with elbasvir 50 mg, fasted): 1.5 h

For quick reference, copied from above:
Cn1c(-c2ccc(C(N)=O)cc2F)nnc1C(C)(C)Oc1c(F)cc(Cl)cc1F — median Cmax (young non-Japanese humans, plasma; oral, 2 mg once daily, last day of 14 days): 18.1 ng/mL
O=S(=O)(O)Oc1cccc(O)c1O — median concentration (human, fasted baseline, cerebrospinal fluid): 3.8 nM
